Measurements pooled from the literature.
Compare with care: the assays were run in different laboratories. ± marks the error that the study gave.

| Structure (SMILES) | organism | assay | system | conditions | EC50 |
| --- | --- | --- | --- | --- | --- |
| C[C@@H](O)[C@H](NC(=O)[C@@H]1CCCN1C(=O)[C@H](Cc1ccc(O)cc1)NC(=O)CNC(=O)[C@H](CCCNC(=N)N)NC(=O)CNC(=O)[C@H](CO)NC(=O)[C@H](Cc1c[nH]cn1)NC(=O)OCC1c2ccccc2-c2ccccc21)C(=O)N[C@@H](CO)C(=O)N1CCC[C@H]1C(=O)N[C@@H](Cc1c[nH]c2ccccc12)C(=O)N[C@@H](CO)C(=O)O | bacteriophage T1 | phage inactivation, plaque count | – | 3 h, 37 °C, 50% phages deactivated | > 200 µg/mL |
| COc1ccccc1CNC(=O)CSc1c[nH]c2ccccc12 | human coronavirus NL63 | viral cytopathic effect, MTS | LLC-MK2 | 120 h | > 50000 nM |
| CCCCCCCCCC(=O)OCC1OC(n2cc(C)c(=O)[nH]c2=O)CC1N(C)C (centres unmarked) | feline herpesvirus | viral replication | CRFK | – | > 50 nM |
| C1CCCCCC2(CCCCC1)OOCCCOO2 | Dengue virus | viral replication, inhibitor, luciferase | BHK-21 | 72 h, replicon | 9500 nM |
| CN(C(=O)c1ccn2ncc(-c3ccc(C(N)=O)cc3)c2c1)C1CCC(C#N)CC1 (centres unmarked) | Cryptosporidium parvum | cytopathic effect | HCT-8 | – | > 20000 nM |
| COc1ccc(-c2cnc3c(C#Cc4cccnc4)snc3c2)cc1OC | dengue virus 2 | viral replication | – | – | 1400 nM |
| O=C(NCc1ccc(F)cc1F)c1cn(Cc2ccc(F)cc2)cc(O)c1=O | Human betaherpesvirus 5 | viral replication, inhibitor | – | 7 days | 860 nM |
| CN(C)CCNC(=O)c1cc(-c2ccccc2)nc2ccccc12 | Coxsackievirus B3 | cytopathic effect | Vero C1008 | – | 300 nM |
| CC(=O)CCC1C(=O)NC(C(C)C)C(=O)NC(Cc2cc(O)cc(F)c2)C(=O)N2CCCC(N2)C(=O)OC(C(C)=CC=CC(=O)N2CCCCO2)CC=CC=CC(O)C(C)C1O (centres unmarked) | hepatitis C virus genotype 1b | measured: HCV RNA | Huh-7 replicon | 72 h | 13 ± 1 nM |
| O=C1/C(=N\NC(=S)NN=Cc2cccs2)c2ccccc2N1Cc1ccccc1 | feline herpesvirus | viral cytopathogenicity | CRFK | – | > 20000 nM |
| COc1ccccc1-c1n[nH]c2nc(N[C@H]3CC[C@H](NS(=O)(=O)CC(C)C)CC3)ncc12 | Leishmania donovani | parasite growth | mouse | intracellular, amastigote | 31.6 nM |
| CC(=O)CCC1C(=O)NC(C(C)C)C(=O)NC(Cc2cccc(O)c2)C(=O)N2CCCC(N2)C(=O)OC(C(C)=CC=CC(=O)N2CCCCO2)CC=CC=CC(O)C(C)C1O (centres unmarked) | hepatitis C virus genotype 1b | luciferase | Huh-5-2 replicon | 4 days | 125 ± 22 nM |
| CNC(=O)c1ccc(-c2cnn3ccc(C(=O)N(c4ccc(C#N)cn4)C(C)(C)C)cc23)cc1 | Cryptosporidium parvum | cytopathic effect | HCT-8 | – | 1950 ± 340 nM |
| COC(=O)c1cn(Cc2ccc(F)cc2)cc(OC)c1=O | Human betaherpesvirus 5 | viral replication, inhibitor | – | 7 days | > 50000 nM |
| CNC(=O)c1ccc(-c2cnn3ccc(C(=O)Nc4ccc(C#N)cn4)cc23)cc1 | Cryptosporidium parvum | cytopathic effect | HCT-8 | – | > 20000 nM |
| Nc1ncnc2c1c(Br)cn2[C@@H]1O[C@H](CO)[C@@H](O)[C@H]1O | Trypanosoma vivax | parasite growth, resazurin | – | 24 h | 740 nM |
| CN(C)c1ccc(C=Nn2c(-c3ccccc3)nc3ccccc3c2=O)cc1 | feline herpesvirus | viral replication, MTS | CRFK | – | > 100 µg/mL |

Repeated from above:
| Structure (SMILES) | organism | assay | system | conditions | EC50 |
| --- | --- | --- | --- | --- | --- |
| CN(C)c1ccc(C=Nn2c(-c3ccccc3)nc3ccccc3c2=O)cc1 | feline herpesvirus | viral replication, MTS | CRFK | – | > 100 µg/mL |
